{"data": "Assay results collected from several papers", "note": "Each line is one published result; not all experiments were run side by side. ± marks the error that the study gave."}
{"Compound": "N=C(N)NCCC[C@@H]1NC(=O)[C@H](Cc2c[nH]c3ccccc23)NC(=O)[C@@H](CC2CCCCC2)NC(=O)[C@@H]2CCCN2C(=O)[C@@H](NC(=O)CCc2ccccc2)CCCNC1=O", "species": "C57BL/6J mice", "matrix": "spinal cord", "route": "oral", "dose": "1 mg/kg", "Tmax": "1.06 h"}
{"Compound": "N#Cc1cnc2cc(OCC3CCNCC3)c(F)cc2c1Nc1cc(F)c(OCc2cccc(Cl)n2)cc1Cl", "species": "male beagle dog", "matrix": "plasma", "route": "oral", "dose": "5 mg/kg", "Tmax": "0.67 h"}
{"Compound": "CC=C1C(OC2OC(CO)C(O)C(O)C2O)OC=C(C(=O)OC)C1CC(=O)OCC1OC(OCCc2ccc(O)cc2)C(O)C(O)C1O (stereo not shown)", "species": "pseudo-germfree mice", "matrix": "plasma", "route": "oral", "dose": "109.2 mg/kg", "Tmax": "0.2 h"}
{"Compound": "Cc1ccc(OCC(=O)O)cc1", "species": "Sprague-Dawley rat Crl:CD(SD), male", "matrix": "plasma", "route": "oral", "dose": "10 mg/kg/day of parent drug", "time": "day 90", "setting": "90-day repeated dosing", "Tmax": "3 h"}
{"Compound": "NS(=O)(=O)c1ccc(N2N=C(C(F)(F)F)CC2c2ccc(F)cc2F)cc1 (stereo not shown)", "species": "beagle dog", "matrix": "plasma", "route": "oral", "dose": "4 mg/kg", "setting": "single dose", "Tmax": "18 h"}
{"Compound": "CC(=O)N[C@H](CC(=O)O)C(=O)N[C@H](Cc1c[nH]c2ccccc12)C(=O)N[C@H](Cc1ccccc1)C(=O)N[C@H](CCCCN)C(=O)N[C@H](C)C(=O)N[C@H](Cc1ccccc1)C(=O)N[C@H](Cc1ccc(O)cc1)C(=O)N[C@H](CC(=O)O)C(=O)N[C@H](CCCCN)C(=O)N[C@@H](C(=O)N[C@H](C)C(=O)N[C@H](CCC(=O)O)C(=O)N[C@H](CCCCN)C(=O)N[C@H](Cc1ccccc1)C(=O)N[C@H](CCCCN)C(=O)N[C@H](CCC(=O)O)C(=O)N[C@H](C)C(=O)N[C@H](Cc1ccccc1)C(N)=O)C(C)C", "species": "statin-treated high-risk CHD patients", "matrix": "plasma", "route": "oral", "dose": "300 mg daily", "time": "day 13", "setting": "mean, detected subjects", "Tmax": "2.39 h"}
{"Compound": "N#Cc1ccc(-c2cc(=O)c3ccc4[nH]c(C(F)(F)F)nc4c3o2)cc1", "species": "5xFAD mice, 2-month-old", "matrix": "plasma", "route": "oral gavage", "dose": "10 mg/kg", "Tmax": "0.5 h"}
{"Compound": "COc1cc(C)c(Cc2ccc(O)cc2)cc1[C@@H]1S[C@H](CO)[C@@H](O)[C@H](O)[C@H]1O", "species": "Japanese T2DM patients", "matrix": "plasma", "dose": "0.5 mg luseogliflozin", "time": "day 1", "setting": "once daily", "Tmax": "4.71 ± 3.04 h"}
{"Compound": "CC(C)(O)c1ncc([S@](N)(=O)=NC(=O)Nc2c3c(cc4c2CCC4)CCC3)s1", "species": "human", "matrix": "plasma", "route": "oral", "dose": "10 mg", "setting": "single dose, fasted, healthy volunteers", "Tmax": "1 h"}
{"Compound": "CC(C)(C)N/C=C(/c1ccccc1)S(=O)(=O)O", "species": "female Swiss Webster mice", "matrix": "plasma", "route": "intravenous", "dose": "15 mg/kg", "Tmax": "1 h"}
{"Compound": "O=C(CCc1ccc(CNC(C(=O)OC2CCCC2)C2CCCCC2)cn1)NO (stereo not shown)", "species": "human", "matrix": "plasma", "route": "oral", "dose": "40 mg", "setting": "multiple doses, once daily, patients", "Tmax": "0.625 h"}
{"Compound": "CN1CCC[C@]1(C)/C=C/S(=O)(=O)NC(=O)Nc1c2c(cc3c1CCC3)CCC2", "species": "human", "matrix": "plasma", "route": "oral", "dose": "100 mg", "setting": "single dose", "Tmax": "1 h"}
{"Compound": "CC(C)C[C@@H](NC(=O)[C@H](NC(=O)[C@H]1CCCN1)[C@H](C)O)C(=O)N[C@H](Cc1c[nH]cn1)C(=O)N[C@@H](C(=O)N[C@H](Cc1c[nH]cn1)C(=O)N[C@H](CC(N)=O)C(=O)N[C@H](CCCNC(=N)N)C(=O)N[C@H](CCCNC(=N)N)C(=O)N[C@H](CCCNC(=N)N)C(=O)N[C@H](CCCNC(=N)N)C(=O)N[C@H](CCCNC(=N)N)C(N)=O)[C@H](C)O", "species": "beagle dog", "matrix": "plasma", "route": "oral", "dose": "20 mg/kg", "setting": "single dose", "Tmax": "2 h"}
{"Compound": "[2H]C([2H])([2H])NC(=O)c1ccc(N2C(=S)N(c3ccc(C#N)c(C(F)(F)F)c3)C(=O)C2(C)C)cc1F", "species": "male human", "matrix": "plasma", "route": "oral", "dose": "160 mg", "setting": "single dose, fasted", "Tmax": "1 h"}
{"Compound": "CC(NCCc1nsc2ccccc12)c1cccc2c1OCO2 (stereo not shown)", "species": "CD-1 mice", "matrix": "plasma", "route": "subcutaneous", "dose": "3 mg/kg", "Tmax": "0.25 h"}
{"Compound": "CC12CC(c3ccc(S(C)(=O)=O)cc3)C3=C4CCC(=O)C=C4CCC3C1CCC2(O)C(F)(F)C(F)(F)F (stereo not shown)", "species": "human", "matrix": "plasma", "route": "oral", "dose": "5 mg", "setting": "single dose, fasted", "Tmax": "1 to 2 h"}
{"Compound": "CN(C)CCNC(=O)/C=C/C(Cc1ccccc1)Nc1ccnc2cc(Cl)ccc12 (stereo not shown)", "species": "ICR mice, healthy", "matrix": "plasma", "route": "oral", "dose": "5 mg/kg", "Tmax": "1 h"}
{"Compound": "O=C(CCc1ccc(CNC(C(=O)O)C2CCCCC2)cn1)NO (stereo not shown)", "species": "human", "matrix": "plasma", "route": "oral", "dose": "20 mg", "setting": "multiple doses, once daily, patients", "Tmax": "1.12 h"}
{"Compound": "CC(C)(Sc1ccncc1-c1ccc(C#N)c2ccccc12)C(=O)OC1OC(C(=O)O)C(O)C(O)C1O (stereo not shown)", "matrix": "plasma", "route": "oral", "dose": "15 mg", "setting": "severe renal impairment, fasted", "Tmax": "2 h"}
